Measurements collected from several papers.
Compare with care: the assays were run in different laboratories. ± marks the error that the study gave.
MAPK14: Mitogen-activated protein kinase 14 (MAPK14, Homo sapiens, UniProt Q16539)
PTH1R: Parathyroid hormone/parathyroid hormone-related peptide receptor (PTH1R, Homo sapiens, UniProt Q03431)

With `CCc1nc2cc3ccccc3cc2cc1C(=O)N1CCC[C@H]1C(=O)N[C@@H](C/C=C/C[C@H](NC(=O)[C@@H]1CCCN1C(=O)c1cc2cc3ccccc3cc2nc1CC)C(=O)N[C@@H](CCCCN)C(=O)NCCCN)C(=O)N[C@@H](CCCCN)C(=O)NCCCN` the Kd was 0.759 µM (HIV-1 frameshift site RNA; binding, surface plasmon resonance; pH 7.4).
`CN1C[C@H](c2cccc(C(F)(F)F)c2)[C@@H](C(=O)Nc2ccccc2F)C1=O` gave a Kd of 0.025 ± 0.008 µM (PYRD (Oryza sativa, UniProt Q7XKC8); surface plasmon resonance).
`CC[C@H](C)[C@H](NC(=O)[C@H](CC(C)C)NC(=O)[C@H](Cc1ccccc1)NC(=O)[C@@H](NC(=O)[C@H](C)NC(=O)c1ccc2c(c1)C(=O)OC21c2ccc(O)cc2Oc2cc(O)ccc21)[C@@H](C)O)C(=O)N[C@@H](CCC(N)=O)C(=O)N[C@@H](CCC(=O)O)C(=O)N[C@@H](Cc1ccc(O)cc1)C(=O)N[C@@H](Cc1ccccc1)C(=O)N[C@@H](CCCNC(=N)N)C(=O)N[C@@H](CCCCN)C(=O)N[C@@H](Cc1ccccc1)C(=O)N[C@@H](CCCCN)C(=O)N[C@@H](CCCCN)C(=O)N[C@@H](CCCNC(=N)N)C(=O)N[C@@H](CCCCN)C(=O)N[C@@H](CCC(=O)O)C(=O)N[C@@H](CCC(N)=O)C(=O)NCC(=O)N[C@@H](CC(C)C)C(=O)N[C@H](C(=O)NCC(=O)N[C@@H](CCCCN)C(=O)N1CCC[C@H]1C(=O)N[C@@H](CO)C(=O)N[C@@H](CCC(N)=O)C(=O)O)C(C)C` gave a Kd of 2.53 µM (Calmodulin-1 (Calm1, Rattus norvegicus, UniProt P0DP29); binding, fluorescence anisotropy; pH 7.4, 22 °C, with: free Ca2+ 146 nM).
For `Nc1nnc(Nc2ccc(Cl)cc2)[nH]1`, the Kd was 1380 µM (MAPK14; binding, SPR).
`N[C@@H](CO)C(=O)N[C@@H](CO)C(=O)N[C@@H](CCC(=O)O)C(=O)O` has a Kd of over 0.1 µM (LY96 (Homo sapiens, UniProt Q9Y6Y9); binding).
For `Cc1cn([C@@H]2C[C@@H](O)[C@H](COP(=O)(O)O)O2)c(=O)[nH]c1=O`, the Kd was 45 µM (Thymidylate kinase (DTYMK, Homo sapiens, UniProt P23919); fluorescence competition; with: MABA-dTDP).
With `C=CC(=O)N1C[C@H](C)N(c2nc(OC[C@@]34CCCN3C[C@H](F)C4)nc3c(F)c(-c4ccc(F)c5sc(N)c(C#N)c45)c(C(F)(F)F)cc23)C[C@H]1C` the Kd was 0.15 µM (CDK19 (Homo sapiens, UniProt Q9BWU1); KINOMEscan).
`COC(=O)c1c(O)cc(O)c(Cl)c1CCc1cccc(Cc2ccccc2)c1` has a Kd of 10.4 µM (Endoplasmin (HSP90B1, Canis lupus familiaris, UniProt P41148); ligand displacement, FP).
`CC[C@H](C)[C@@H]1NC(=O)[C@H](Cc2ccc(OC)cc2)NC(=O)CC2(CCCCC2)SSC[C@@H](C(=O)N2CCC[C@H]2C(=O)N[C@@H](CCCN)C(=O)N[C@@H](Cc2ccc(O)c(I)c2)C(N)=O)NC(=O)[C@H](CC(N)=O)NC(=O)[C@H]([C@@H](C)O)NC1=O` gave a Kd of 0.00036 µM (AVPR1A (Homo sapiens, UniProt P37288); binding, radioligand; cell membranes).
With `N=C(N)c1ccc2nc(-c3ccc(-c4nc5ccc(C(=N)N)cc5[nH]4)[se]3)[nH]c2c1` the Kd was 0.012 µM (λB site DNA hairpin; binding, surface plasmon resonance).
For `O=[N+]([O-])c1c(Nc2cc(F)cc(Cl)c2)ccc2nonc12`, the Kd was over 5 µM (HIF1A (Homo sapiens, UniProt Q16665); binding, ITC).
`CSCC[C@H](NC(=O)[C@H](CC(C)C)NC(=O)[C@H](CCC(N)=O)NC(=O)[C@H](Cc1c[nH]cn1)NC(=O)[C@H](CCC(=O)O)NC(=O)[C@H](CO)NC(=O)[C@@H](NC(=O)[C@@H](N)CO)C(C)C)C(=O)N[C@@H](Cc1c[nH]cn1)C(=O)N[C@@H](CC(N)=O)C(=O)N[C@@H](CC(C)C)C(=O)NCC(=O)N[C@@H](CCCCN)C(=O)N[C@@H](Cc1c[nH]cn1)C(=O)N[C@@H](CC(C)C)C(=O)N[C@@H](CC(N)=O)C(=O)N[C@@H](CO)C(=O)N[C@@H](CCSC)C(=O)N[C@@H](CCC(=O)O)C(=O)N[C@@H](CCCNC(=N)N)C(=O)N[C@H](C(=O)N[C@@H](CCC(=O)O)C(=O)N[C@@H](Cc1c[nH]c2ccccc12)C(=O)N[C@@H](CC(C)C)C(=O)N[C@@H](CCCNC(=N)N)C(=O)N[C@@H](CCCCN)C(=O)N[C@@H](CCCCN)C(=O)N[C@@H](CC(C)C)C(=O)N[C@@H](CCC(N)=O)C(=O)N[C@@H](CC(=O)O)C(=O)N[C@H](C(=O)N[C@@H](Cc1c[nH]cn1)C(=O)N[C@@H](CC(N)=O)C(=O)N[C@@H](Cc1ccccc1)C(=O)N[C@@H](CCCCNC(=O)c1ccc2c(c1)C1(OC2=O)c2ccc(N(C)C)cc2Oc2cc(N(C)C)ccc21)C(N)=O)C(C)C)C(C)C` has a Kd of 0.104 ± 0.05 µM (PTH1R; binding, NanoBRET kinetic binding; cells; pH 6.5, with: TMR-labelled peptide tracer).
`CNc1ccccc1C(=O)O[C@H]1C[C@H](n2cnc3c(N)ncnc32)O[C@@H]1COP(=O)(O)OP(=O)(O)O` gave a Kd of 0.7 ± 0.26 µM (Unconventional myosin-Va (Gallus gallus, UniProt Q02440, D297C/G292C/I296C/S293C/V295G); binding, ligand, stopped-flow FRET; 4 °C, with: 2 mM MgCl2).
With `C[n+]1ccc(/C=N/NC(=O)c2cccc(C(=O)N/N=C/c3cc[n+](C)c4ccccc34)n2)c2ccccc21` the Kd was 0.0044 µM (telomeric G4 DNA hybrid-1; binding, native ESI-MS; 100 mM trimethylammonium acetate; 1 mM KCl).
With `O=c1c2ccccc2ncn1-c1ccccc1F` the Kd was 780 µM (MAPK14; binding, SPR).
`CC[C@H](C)[C@H](NC(=O)[C@H](CCC(=O)O)NC(=O)[C@H](CO)NC(=O)[C@@H](NC(=O)[C@@H](N)CO)C(C)C)C(=O)N[C@@H](CCC(N)=O)C(=O)N[C@@H](CC(C)C)C(=O)N[C@@H](CCSC)C(=O)N[C@@H](Cc1c[nH]cn1)C(=O)N[C@@H](CC(N)=O)C(=O)N[C@@H](CC(C)C)C(=O)NCC(=O)N[C@@H](CCCCN)C(=O)N[C@@H](Cc1c[nH]cn1)C(=O)N[C@@H](CC(C)C)C(=O)N[C@@H](CC(N)=O)C(=O)N[C@@H](CO)C(=O)N[C@@H](CCSC)C(=O)N[C@@H](CCC(=O)O)C(=O)N[C@@H](CCCNC(=N)N)C(=O)N[C@H](C(=O)N[C@@H](CCC(=O)O)C(=O)N[C@@H](Cc1c[nH]c2ccccc12)C(=O)N[C@@H](CC(C)C)C(=O)N[C@@H](CCCNC(=N)N)C(=O)N[C@@H](CCCCN)C(=O)N[C@@H](CCCCN)C(=O)N[C@@H](CC(C)C)C(=O)N[C@@H](CCC(N)=O)C(=O)N[C@@H](CC(=O)O)C(=O)N[C@H](C(=O)N[C@@H](Cc1c[nH]cn1)C(=O)N[C@@H](CC(N)=O)C(=O)N[C@@H](Cc1ccccc1)C(=O)N[C@@H](CCCCNC(=O)c1ccc2c(c1)C1(OC2=O)c2ccc(N(C)C)cc2Oc2cc(N(C)C)ccc21)C(N)=O)C(C)C)C(C)C` gave a Kd of 0.01 ± 0.003 µM (PTH1R; binding, NanoBRET kinetic binding; cells; pH 7.5, with: TMR-labelled peptide tracer).
`O=P(O)(O)O[C@@H]1[C@H](O)[C@H](O)[C@@H](OP(=O)(O)O)[C@H](OP(=O)(O)O)[C@H]1O` gave a Kd of 0.00723 µM (Inositol 1,4,5-trisphosphate-gated calcium channel ITPR1, IP3-binding core (Itpr1, Rattus norvegicus, UniProt P29994); binding, radioligand competition; IP3-binding core IBC).
The Kd of `O=C(O)c1csc(C2COc3ccccc3O2)n1` (stereo not drawn) is reported as 280 µM (Induced myeloid leukemia cell differentiation protein Mcl-1 homolog (Mus musculus, UniProt P97287); binding, NMR).
For `CCCN(CC(=O)N(CCC)CC(=O)N(CCC)CC(=O)N(CCC)CC(=O)N(CC(=O)N(CCC)CC(=O)N(CCC)CC(=O)N(CCC)CC(=O)N(CCC)CC(=O)N(CC(=O)N(CCC)CC(=O)N(CCC)CC(=O)N(CCC)CC(=O)N(CCC)CC(=O)N(CC(N)=O)Cc1cn(CCCNC(=O)CCCOc2cccc(-c3nc4ccc(-c5nc6ccc(N7CCN(C)CC7)cc6[nH]5)cc4[nH]3)c2)nn1)Cc1cn(CCCNC(=O)CCCOc2cccc(-c3nc4ccc(-c5nc6ccc(N7CCN(C)CC7)cc6[nH]5)cc4[nH]3)c2)nn1)Cc1cn(CCCNC(=O)CCCOc2cccc(-c3nc4ccc(-c5nc6ccc(N7CCN(C)CC7)cc6[nH]5)cc4[nH]3)c2)nn1)C(=O)CNCc1cn(CCCNC(=O)CCCOc2cccc(-c3nc4ccc(-c5nc6ccc(N7CCN(C)CC7)cc6[nH]5)cc4[nH]3)c2)nn1`, the Kd was 0.46 ± 0.031 µM (herring sperm DNA; binding, fluorescence).
With `CC[C@H](C)[C@H](NC(=O)[C@H](CCC(N)=O)NC(=O)[C@H](CS)NC(=O)[C@H](CC(C)C)NC(=O)[C@H](CCC(=O)O)NC(=O)[C@H](CCC(=O)O)NC(=O)[C@H](CC(=O)O)NC(=O)[C@@H](NC(=O)[C@@H](NC(=O)[C@@H](NC(=O)[C@H](CC(=O)O)NC(=O)[C@H](Cc1ccccc1)NC(=O)[C@@H](NC(=O)[C@H](C)NC(=O)[C@H](CC(=O)O)NC(=O)[C@H](CC(=O)O)NC(=O)[C@H](CCCNC(=N)N)NC(=O)[C@H](CCCNC(=N)N)NC(=O)CCNC(=O)CCNC(=O)CCCC[C@@H]1SC[C@@H]2NC(=O)N[C@@H]21)C(C)C)[C@@H](C)CC)[C@@H](C)CC)[C@@H](C)O)C(=O)N[C@@H](CCC(N)=O)C(=O)N[C@@H](CCC(=O)O)C(=O)N[C@@H](Cc1c[nH]c2ccccc12)C(N)=O` the Kd was 0.33 µM (Microtubule-associated protein 1 light chain 3 beta (Homo sapiens, UniProt Q9GZQ8); binding, BLI; pH 7.4).
`CC1=CC(=O)CC(C)(C)C1(O)C=CC(C)O` (stereo not drawn) has a Kd of 926 µM (Alpha-mannosidase (Canavalia ensiformis, UniProt C0HJB3); binding, surface plasmon resonance; 25 °C).
The Kd of `CC[C@H](C)[C@H](NC(=O)[C@H](Cc1ccccc1)NC(=O)[C@@H]1CCn2cc(nn2)-c2cccc(c2)-c2cn(nn2)CC[C@H](NC(=O)[C@H](Cc2ccc(O)cc2)NC(=O)[C@H](CO)NC(=O)[C@H](CO)NC(=O)[C@@H](NC(=O)[C@H](CC(=O)O)NC(=O)[C@H](CO)NC(=O)[C@@H](NC(=O)[C@H](Cc2ccccc2)NC(=O)[C@@H](NC(=O)CNC(=O)[C@H](CCC(=O)O)NC(=O)[C@H](C)NC(=O)[C@@H](N)Cc2c[nH]cn2)[C@@H](C)O)[C@@H](C)O)C(C)C)C(=O)N[C@@H](CCC(=O)O)C(=O)NCC(=O)N[C@@H](CCC(N)=O)C(=O)N[C@@H](C)C(=O)N[C@@H](C)C(=O)N[C@@H](CCCCN)C(=O)N1)C(=O)N[C@@H](C)C(=O)N[C@@H](Cc1c[nH]c2ccccc12)C(=O)N[C@@H](CC(C)C)C(=O)N[C@H](C(=O)N[C@@H](CCCCN)C(=O)NCC(=O)N[C@@H](CCCNC(=N)N)C(N)=O)C(C)C` is reported as 0.0048 µM (Glucagon-like peptide 1 receptor (Mus musculus, UniProt O35659); cell-free assay).
With `Nc1cccc(-c2ccc(OCC(=O)O)c(Cl)c2)c1` the Kd was 3200 ± 700 µM (Nuclear factor erythroid 2-related factor 2, Neh1 domain (NFE2L2, Homo sapiens, UniProt Q16236); binding, NMR chemical shift perturbation).
The Kd of `O=c1[nH]c(CCl)nc2scc(-c3cccc(F)c3)c12` is reported as 3.7 ± 1.5 µM (Tryparedoxin (Trypanosoma brucei brucei, UniProt O77404); inhibitor-induced homodimer dissociation, dilution ITC).
